Published values collected from several papers.
Numbers after ± are the reported error.
BCHE: Cholinesterase (BCHE, Homo sapiens, UniProt P06276)
Chain of UniProt P06276 (whole entry, looked up): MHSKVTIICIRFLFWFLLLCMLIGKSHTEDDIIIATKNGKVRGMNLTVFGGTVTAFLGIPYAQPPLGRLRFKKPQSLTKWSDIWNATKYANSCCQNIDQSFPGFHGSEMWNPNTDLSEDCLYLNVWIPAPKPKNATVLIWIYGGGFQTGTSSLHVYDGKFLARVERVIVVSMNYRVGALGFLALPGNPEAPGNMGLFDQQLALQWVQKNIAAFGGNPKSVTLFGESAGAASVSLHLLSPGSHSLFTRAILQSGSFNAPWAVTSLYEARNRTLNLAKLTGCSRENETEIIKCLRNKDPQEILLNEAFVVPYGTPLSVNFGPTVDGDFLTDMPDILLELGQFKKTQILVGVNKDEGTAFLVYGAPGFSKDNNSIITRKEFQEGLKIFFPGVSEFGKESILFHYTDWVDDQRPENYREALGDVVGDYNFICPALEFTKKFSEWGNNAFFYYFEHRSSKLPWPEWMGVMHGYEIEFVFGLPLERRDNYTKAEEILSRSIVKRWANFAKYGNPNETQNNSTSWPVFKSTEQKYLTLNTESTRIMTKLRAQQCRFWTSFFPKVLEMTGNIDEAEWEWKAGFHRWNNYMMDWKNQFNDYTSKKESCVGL

SMILES = Cc1cc(C)c(CNC(=O)c2cc(Cl)c3c(c2C)O[C@@](C)([C@H]2CC[C@H](N(C)C)CC2)O3)c(=O)[nH]1; system = relapsed/refractory NHL patients; setting = dose not given, trial, safety set, treatment-related TEAE grade 5; measurement = incidence of Pneumocystis jirovecii pneumonia; result = 0%
SMILES = NCCCC[C@@H]1NC(=O)[C@@H](Cc2c[nH]c3ccccc23)NC(=O)[C@H](c2ccccc2)NC(=O)[C@@H]2C[C@@H](OC(=O)NCCN)CN2C(=O)[C@H](Cc2ccccc2)NC(=O)[C@H](Cc2ccc(OCc3ccccc3)cc2)NC1=O; system = healthy volunteers; setting = subcutaneous, 1950 µg twice daily, day 5, 2.00 h; measurement = QTcI change from baseline; result = 11.2 ms
SMILES = CCOc1cc(Oc2ccc(C(F)(F)F)cc2Cl)ccc1[N+](=O)[O-]; system = rat male; setting = 3.25 mg/kg, 8 days; measurement = final body weight; result = 159 ± 3.8 g
SMILES = C=CC(=O)Nc1cc(Nc2nccc(Nc3cc(Cl)c(F)cc3C(C)(C)O)n2)c(OC)cc1N1CC[C@@H](N(C)C)C1; system = human; setting = oral, dose not given, phase I clinical; measurement = patients with adverse event Dizziness; result = 11.8%
SMILES = Clc1cc(Cl)cc(-c2cc(Cl)ccc2Cl)c1; system = fresh water; setting = 20 °C, S30-1 sampler, 30 µm; measurement = log K(PDMS-water); result = 5.71 ± 0.04
SMILES = C[C@]1(O)C[C@@](N)(c2ccc(-c3nc4n(c3-c3ccccc3)COc3ccncc3-4)cc2)C1; system = human, advanced or metastatic solid tumours; setting = 20 mg once daily, phase I dose escalation; measurement = patients with Diarrhea TEAE; result = 50%
SMILES = O=C(O)CCCOc1ccc(F)cc1-c1cc(-c2ccccc2C(F)(F)F)n(-c2ccccc2)n1; system = female Crl:CD(SD) rats, thymus; setting = intravenous, 25 µg/kg, 1 d; measurement = relative organ weight; result = 0.25 ± 0.04 g%
SMILES = CO[C@H]1C[C@@H]2CC[C@@H](C)[C@@](O)(O2)C(=O)C(=O)N2CCCC[C@H]2C(=O)O[C@H]([C@H](C)C[C@@H]2CC[C@@H](OC(=O)NCCOCCOCCOCCOCCOCCOCCOCCOCCC(=O)N3CCc4cc(Cn5nc(-c6ccc7oc(N)nc7c6)c6c(N)ncnc65)ccc4C3)[C@H](OC)C2)C[C@@H](O)[C@H](C)/C=C(\C)[C@@H](O)[C@@H](OC)C(=O)[C@H](C)C[C@H](C)/C=C/C=C/C=C/1C; test = phase 1 dose escalation, item: nausea; system = advanced solid tumour patients; setting = intravenous, 12 mg weekly, grade ≥3; measurement = TRAE incidence; result = 0%
SMILES = C[C@@H]1NC(=O)[C@H](CCCCNC(=O)CO/N=C/C(=O)NCCCC[C@@H]2NC(=O)[C@@H](Cc3ccccc3)NC(=O)[C@H](CC(=O)O)NC(=O)CNC(=O)[C@H](CCCNC(=N)N)NC2=O)NC(=O)CNC(=O)[C@@H]2CCCN2C(=O)[C@H](CCCCNC(=O)CO/N=C/C(=O)NCCCC[C@@H]2NC(=O)[C@@H](Cc3ccccc3)NC(=O)[C@H](CC(=O)O)NC(=O)CNC(=O)[C@H](CCCNC(=N)N)NC2=O)NC(=O)[C@H](CCCCNC(=O)[C@H](CCCCN)NC(=O)[C@H](Cc2ccccc2)NC(=O)CNC(=O)CN2CCCNCCNCCCNCC2)NC(=O)[C@H](CCCCNC(=O)CO/N=C/C(=O)NCCCC[C@@H]2NC(=O)[C@@H](Cc3ccccc3)NC(=O)[C@H](CC(=O)O)NC(=O)CNC(=O)[C@H](CCCNC(=N)N)NC2=O)NC(=O)CNC(=O)[C@@H]2CCCN2C(=O)[C@H](CCCCNC(=O)CO/N=C/C(=O)NCCCC[C@@H]2NC(=O)[C@@H](Cc3ccccc3)NC(=O)[C@H](CC(=O)O)NC(=O)CNC(=O)[C@H](CCCNC(=N)N)NC2=O)NC1=O [copper-64 labelled]; system = normal mice, blood; setting = intravenous, 0.74 MBq, 24 h post-injection; measurement = tissue uptake; result = 0.13 ± 0.01 %ID/g
SMILES = COc1nnc2ccc(N3CCC(c4ccc(OCCN5CCN(C)C(=O)[C@H]5C)cc4)CC3)nn12; system = relapsed/refractory solid tumour or lymphoma patients; setting = oral, dose not given; measurement = any TEAE; result = 94.1%
SMILES = Cc1ncnc2c1ccn2[C@@H]1C[C@H](Oc2cc(C(F)F)c(F)c3c2CNCC3)[C@@H](O)[C@H]1O; system = patients; setting = dose not given, grade ≥3; scale = reference: patients; measurement = Nausea incidence; result = 0%
SMILES = COc1ccnc(C(=O)N[C@H]2COC(=O)[C@H](Cc3ccccc3)[C@@H](OC(=O)C(C)C)[C@H](C)OC2=O)c1OCOC(=O)C(C)C; system = straw, bran, forage, germ; setting = -18 °C; measurement = storage stability of residues; result = 9 months
SMILES = N=c1c2c(-c3ccccc3)c(-c3ccccc3)n(Cc3ccccc3)c2ncn1[C@H]1CC[C@H](O)CC1; system = Sprague-Dawley rat, male, urine; setting = intravenous, 2 mg/kg; scale = reference: dose; measurement = unchanged drug excreted in urine; result = < 1%
SMILES = O=C(O)CCC(CP(=O)(O)O)C(=O)O (centres unmarked); system = rat plasma; setting = 0.3 µg/mL, 4 h, room temperature, bench-top stability; measurement = measured concentration; result = 0.326 ± 0.009 µg/mL
SMILES = c1ccc2c(c1)c1cccc3ccc4cccc2c4c31; system = fresh water; setting = 12 (unit not given), 20 °C; measurement = log K(PDMS-water); result = 5.12 ± 0.04
SMILES = NCCOCC(=O)N1CCCC(C(=O)NCc2nc(-c3ccc(-c4ccc(F)cc4)cc3)cs2)C1 (centres unmarked); system = rat, bile duct-cannulated, anaesthetised, bile; setting = intravenous, dose not given, 6 h; scale = reference: dose; measurement = biliary excretion, unchanged; result = 41%
SMILES = O=C(NCCCCN1CCN(c2cccc(Cl)c2Cl)CC1)c1cc2ccccc2s1; tested on = BCHE; test = inhibitor; setting = with Triton; measurement = IC50; result = 25.3 ± 1.71 µM
SMILES = CC[N+](CC)(CC)CCOc1ccc(/C=C/c2ccccc2)cc1; tested on = Plasmodium falciparum; system = D10; measurement = IC50; result = 0.501 µM
SMILES = N=C(N)NCCC[C@@H](NC(=O)[C@@H](N)Cc1ccccc1)C(=O)N[C@@H](Cc1ccccc1)C(=O)N[C@@H](CCCCN)C(N)=O; test = LC-MS; system = human; setting = 5 mg, 23.83 h; measurement = median amount excreted in urine; result = 91600 ng
SMILES = CC(C)CC(=O)OC[C@H]1O[C@@](C#N)(c2ccc3c(N)ncnn23)[C@H](O)[C@@H]1O; test = plasma protein binding; system = mouse plasma; setting = 90 µM; measurement = unbound fraction; result = 0.193
SMILES = CN1CCN(c2ccc(Nc3nccc(-c4ccc(F)cc4)n3)cc2C(F)(F)F)CC1; system = zebrafish embryos; setting = 25 µM, 5 d; measurement = toxicity; result = 0%
SMILES = COc1cc(O)ccc1OCCNCC(O)COc1cccc2[nH]c3ccccc3c12 (centres unmarked); tested on = BCHE; test = enzyme activity, fluorescence; measurement = IC50; result = 2.44 ± 1.24 µM
SMILES = COc1ccc(CCN(C)CCCC(C#N)(c2ccc(OC)c(OC)c2)C(C)C)cc1OC (centres unmarked); tested on = Plasmodium falciparum; system = D10; measurement = IC50; result = 5.01 µM
SMILES = CC(C)C[C@@H]1NC(=O)[C@H](CC(N)=O)NC(=O)[C@H](CCCNC(=N)N)NC(=O)[C@H]([C@@H](C)O)NC(=O)[C@@H]2CSSC[C@@H]3NC(=O)[C@H]([C@@H](C)O)NC(=O)CNC(=O)CNC(=O)[C@H](C(C)C)NC(=O)[C@@H]4CSSC[C@H](NC(=O)[C@H]([C@@H](C)O)NC(=O)[C@H](CSSC[C@H](NC(=O)[C@H](C(C)C)NC(=O)[C@@H]5CCCN5C(=O)[C@H](CC(C)C)NC1=O)C(=O)NCC(=O)N[C@@H](CCC(=O)O)C(=O)N[C@@H]([C@@H](C)O)C(=O)N4)NC(=O)CNC(=O)[C@@H]1CCCN1C(=O)[C@H]([C@@H](C)O)NC(=O)[C@H](CC(N)=O)NC3=O)C(=O)N[C@@H](CO)C(=O)N[C@@H](Cc1c[nH]c3ccccc13)C(=O)N1CCC[C@H]1C(=O)N[C@@H](C(C)C)C(=O)N2; test = HPLC; system = water; setting = 180 µM, 14 days, 37 °C, deamidation stability; measurement = remaining peptide; result = 98.3 ± 1.3%
SMILES = c1ccc2c(c1)-c1cccc3c1c-2cc1ccccc13; system = fresh water; setting = 12 (unit not given), 20 °C, SSP sampler, 100 µm; measurement = log K(PDMS-water); result = 5.16 ± 0.02
SMILES = COc1cc2c(Oc3ccc4[nH]c(C)cc4c3F)ccnc2cc1OCC1(N)CC1; test = item: grade 1 or 2 blurred vision; system = paediatric high-risk refractory sarcoma; setting = 8 mg; measurement = incidence of adverse event; result = 0%
SMILES = C[C@]1(CO)Cc2ncn(-c3ccc(C#N)c(Cl)c3)c2C(=O)O1; system = human, plasma; setting = 10 mg, first dose fasted; measurement = half-life; result = 5.5 h
SMILES = C[C@H](C(=O)N[C@H]1COc2ccccc2[C@@H]1S(C)(=O)=O)c1ccc(F)cc1; system = human cryopreserved hepatocytes; setting = 1 µM; measurement = hepatic clearance; result = 18 mL/min/kg
SMILES = CN[C@@H](C)C(=O)N[C@H]1CN(S(=O)(=O)c2cccc(S(=O)(=O)N3CC[C@H]4CC[C@@H](C(=O)NC(c5ccccc5)c5ccccc5)N4C(=O)[C@@H](NC(=O)[C@H](C)NC)C3)c2)CC[C@H]2CC[C@@H](C(=O)NC(c3ccccc3)c3ccccc3)N2C1=O; system = patients advanced solid tumours; setting = dose not given, all grades all doses; measurement = any treatment-related adverse event; result = 21.4%
SMILES = CC(=O)N(C)[C@H]1CCN(C(=O)c2cnc3c(c2)C[C@](C)(c2ccc(F)cc2)N3)C1; test = item: abdominal discomfort; system = human; setting = oral, dose not given, together with: midazolam; measurement = adverse event duration; result = 2 days
SMILES = COc1cccc2c1CCCC2CCCN1CCN(C2CCCCC2)CC1 (centres unmarked); system = CD-1 mouse, male, plasma; setting = intraperitoneal, 3 mg/kg; measurement = AUC(0-t); result = 96 ng·h/mL
SMILES = C[C@@H](NC(=O)N1C(=O)[C@H](Cc2ccnc(N)c2)[C@H]1C(=O)O)C1CCCCC1; system = healthy adult Chinese volunteers; setting = continuous intravenous infusion, 0.3 mg/kg/h, 5-day infusion, CTCAE 5.0 grading; measurement = incidence of serious AEs; result = 0%
